Published values of several laboratories.
Each line is one published result; not all experiments were run side by side. ± marks the error that the study gave.
DRD2 long isoform: D(2) dopamine receptor, long isoform (DRD2, Homo sapiens, UniProt P14416)
Sequence of UniProt P14416 (whole entry, looked up): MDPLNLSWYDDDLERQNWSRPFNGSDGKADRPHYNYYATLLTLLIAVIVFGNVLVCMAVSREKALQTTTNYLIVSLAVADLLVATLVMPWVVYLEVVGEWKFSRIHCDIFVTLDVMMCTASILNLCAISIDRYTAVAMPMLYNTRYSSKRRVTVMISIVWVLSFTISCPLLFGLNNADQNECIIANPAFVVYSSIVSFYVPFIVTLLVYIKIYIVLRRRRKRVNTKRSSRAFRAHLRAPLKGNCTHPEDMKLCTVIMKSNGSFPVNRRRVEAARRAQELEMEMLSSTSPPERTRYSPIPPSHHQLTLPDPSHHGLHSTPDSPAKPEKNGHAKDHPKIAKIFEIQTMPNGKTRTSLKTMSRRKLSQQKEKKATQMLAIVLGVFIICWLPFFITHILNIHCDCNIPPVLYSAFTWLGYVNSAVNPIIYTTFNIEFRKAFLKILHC
DRD2: D(2) dopamine receptor (DRD2, Homo sapiens, UniProt P14416)

SMILES | target | assay | test system | setting | measurement | value
CN1CCN(c2ccc3cnn(Cc4cccc5ccccc45)c3c2)CC1 | DRD2 long isoform | binding, radioligand displacement | HEK293 membranes | 1 h, 37 °C, together with: [3H]-raclopride | Ki | 1250 ± 214 nM
Cc1[nH]c(C)c(S(=O)(=O)Nc2ccc(F)cc2)c1C(=O)N1CCCC1 | DRD2 | – | – | – | IC50 | > 100 µM
OCCN1CCN(CCOc2ccccc2-c2ccccc2)CC1 | DRD2 | ligand displacement, radioligand | – | – | Ki | 1020 nM
CN1CCN(c2cn(S(=O)(=O)c3ccccc3)c3ccccc23)CC1 | DRD2 long isoform | binding, radioligand displacement | HEK293 membranes | 1 h, 37 °C, together with: [3H]-raclopride | Ki | 532 ± 63 nM
CC1Cc2ccccc2N1C(=O)CN1CCN(Cc2ccccc2)CC1 (stereo not shown) | DRD2 | agonist | – | – | EC50 | 0.251 nM
CCCn1ccc2c(N3CCN(CCCCOc4ccc5c(c4)NC(=O)CC5)CC3)cccc21 | DRD2 | cell-free assay, radioligand | – | – | Ki | 55 nM
Cc1[nH]c(C)c(S(=O)(=O)NC(C)(C)C)c1C(=O)N1CCCC1 | DRD2 | – | – | – | IC50 | > 100 µM
CC(C)NCc1ccc(-c2cc(Cl)ccc2Cl)o1 | DRD2 | ligand displacement, radioligand | – | – | Ki | 649 nM
Cc1ccc(NS(=O)(=O)c2c(C)[nH]c(C)c2C(=O)N2CCCC2)cc1F | DRD2 | – | – | – | IC50 | > 100 µM
O=C1CCc2ccc(OCCCCN3CCN(c4cccc5c4ccn5Cc4ccccc4)CC3)cc2N1 | DRD2 | cell-free assay | – | – | Ki | 20.9 nM

Some of these lines once more:
SMILES | target | assay | test system | setting | measurement | value
Cc1[nH]c(C)c(S(=O)(=O)NC(C)(C)C)c1C(=O)N1CCCC1 | DRD2 | – | – | – | IC50 | > 100 µM
